Published values pooled from the literature.
Each numbered part is a random draw from the data of one study; scales do not carry over between parts.

Series 1
Target: Fragile X messenger ribonucleoprotein 1, C-terminal low-complexity region (Fmr1, Mus musculus, UniProt P35922)
Technique: RNA Bind-n-Seq
Molecule type: RNA
Sample: in vitro
Tested at: 200 nM
Setting: whole 134-nt RNA, ends assumed
Added: 150 mM KCl
Relative to: input library
Direction: higher = stronger binding
Quantity: log2 enrichment
Constant ends, left off below: GGGAGUUCUACAGUCCGACGAUC … UGGAAUUCUCGGGUGUCAAGG
Sequence = UCAAGUCCUGUGCUACACAUCGUAUGUACCGAAUCGGAAAAAAAGGAAAGGAGGAAAGUAUUAUGUUACGCCGUUCGGAUCUGCACUUCC; value = -0.525
Sequence = ACUUUGUCAGAUAUUGCUAGGGACCAGUGAGAUAGAUAAUCCAAAAAUAAUAAUUUGACUUUGGUUGAGUAUGUCAUUACCACAGUGUUA; value = -1.75
Sequence = UCCUGUGCUACACAUCGUAUGUACCGAAUCGGGGAAAAAAGGAAAAAAGGGAAAAAAGGAAAGUAUUAUGUUACGCCGUUCGGAUCUGCA; value = -0.269
Sequence = UGGGAGGUGGAUUUUGUUUAUUUUUUUAGCUCAUUUCCAGGGUUGGGAAUUUUUUUUUAAUAUGUGUCAUGAAUAAAGUUGUUUUUGAAA; value = -0.268
Sequence = CUGUGCUACACAUCGUAUGUACCGAAUCGGGGAAAAAAGGGGAAAAAAGGGAAAAAAGGGGAAAGUAUUAUGUUACGCCGUUCGGAUCUG; value = -0.439
Sequence = UGGCCCUGGUGGCAUGCGGGGAGGAAGAGGUGGCCUCAUGGAUCGUGGCGGUCCCGGUGGAAUGUUCAGAGGUGGCCGUGGUGGAGACAG; value = -0.0409
Sequence = UCCUCAAGUCCUGUGCUACACAUCGUAUGUACCGAAUCGGCCGGCCGGCCGGAAAGUAUUAUGUUACGCCGUUCGGAUCUGCACUUCCAG; value = 0.429
Sequence = CCUGUGCUACACAUCGUAUGUACCGAAUCGGGGAAAAAAAGGGGAAAAAAAGGGGAGGGGAAAGUAUUAUGUUACGCCGUUCGGAUCUGC; value = 0.114
Sequence = CCUGUGCUACACAUCGUAUGUACCGAAUCGGGGUUUUUUUGGGGUGGGGAAAAAAAGGGGAAAGUAUUAUGUUACGCCGUUCGGAUCUGC; value = 0.213
Sequence = CCUGUGCUACACAUCGUAUGUACCGAAUCGGGAAAAAAAGGGGAAAAAAAGGAAAAAAAGGAAAGUAUUAUGUUACGCCGUUCGGAUCUG; value = -0.843
Sequence = CAAGUCCUGUGCUACACAUCGUAUGUACCGAAUCGGGGUUUGGGGUUUGGUUUGGAAAGUAUUAUGUUACGCCGUUCGGAUCUGCACUUC; value = 0.142
Sequence = GUCCUGUGCUACACAUCGUAUGUACCGAAUCGGGGUUUUUGGGGUUUUUGGGUUUUUGGAAAGUAUUAUGUUACGCCGUUCGGAUCUGCA; value = 0.0722
Sequence = GCAGGAAGUAAAAACAAAUGGAAAUGCUUCGGAUAGUGGCAGGGGCGGGGGUUGCUAAGGAAAGGGUGGGAUGGGAGUGGGUAAAGAGUU; value = 0.265
Sequence = GUCCUGUGCUACACAUCGUAUGUACCGAAUCGGGUUUGGGAAAAAAAGGGAAAAAGGGAAAGUAUUAUGUUACGCCGUUCGGAUCUGCAC; value = -0.151

Series 2
Target: RING finger protein unkempt homolog, zinc fingers 1-6, GST-SBP tag (UNK, Homo sapiens, UniProt Q9C0B0, residues 30-357)
Technique: RNA Bind-n-Seq
Molecule type: RNA
Sample: in vitro
Tested at: not given
Setting: RNA with constant flanks, human-mouse chimeric sites, ends assumed
Relative to: input RNA pool
Direction: higher = stronger binding
Quantity: bound/input enrichment
Constant ends, left off below: GGGAGUUCUACAGUCCGACGAUC … CAACAGAGGAUUGAGCAUCA
Construct (chain): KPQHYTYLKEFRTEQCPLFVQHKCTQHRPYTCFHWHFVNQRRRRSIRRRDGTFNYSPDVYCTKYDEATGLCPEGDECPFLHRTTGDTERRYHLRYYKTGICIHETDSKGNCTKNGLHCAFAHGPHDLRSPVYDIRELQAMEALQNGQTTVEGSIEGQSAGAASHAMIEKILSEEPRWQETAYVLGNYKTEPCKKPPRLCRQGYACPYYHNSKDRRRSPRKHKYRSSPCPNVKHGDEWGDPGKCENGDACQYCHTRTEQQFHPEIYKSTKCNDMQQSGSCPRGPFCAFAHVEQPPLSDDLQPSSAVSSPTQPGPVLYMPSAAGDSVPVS
Sequence = CUGUGACCACAAGAUCCUACCUGAGUGGCAGCUGAAGUUGACUCCCUCUCCUUGCCUGAACCCCCCCCCACUGCCCCCCCAUCCCCCAGUGUCGGCUAUUCUCUGGUCUCUGCACGGUUC; value = 1.32 ratio
Sequence = CACACACUCUUCUGCGGGACCCUCAUCUUGCAGGCCCGAGCCUACGUGGGACCGCACGUGCUAGCAGUGGUGACCCGCACAGGGUUCUGCACGGCAAAAGGGGGCCUGGUGAGCUCCAUC; value = 0.0782 ratio
Sequence = AAAGAACUACUGAGGCAAGGCAGCAAAUUUAGGAGAGAUGUAUCAACAAUAUUGAUAGAGUUAGGAUUCCAAAUUAAAAAGAAAACUAAAAGAUUGUACAUCAACAAAGCCAAUGUGUGG; value = 4.35 ratio
Sequence = UACUCAACUUUCUUGCCACAUUUUGAAUUCCAAGACAUUAUCCCUCCAGAUGACUUCCUAACGAGUGAUGAAGAAGUAGAUUUGGUUUUAUUUGGAACUAUGAGAGGACAAGUUGUUGGA; value = 0.248 ratio
Sequence = UGUAACUUAUCUGUAAAAGGUUCCCCCCCCUACUGUCCAAAAAAUAUGCAUGUAUAGUAAUUAGGACUUCAUUCCUCCAUGUUUUCUUCCCUUAUCUUACUGUCAUUGUCCUUAAACCUU; value = 1.91 ratio
Sequence = ACUCAGAGAUCCACCUCCCAAAGUGCUGGGAGUAAAGGUGUGGCCACCACACCUAACUUGAUGGAUAUUUUAUAAAGUUAAUAUGAAUCUUCCUGUUCUUCAUCCAGAGAAAGAUUUGUU; value = 0.163 ratio
Sequence = GAAUCCUACUCAGGCGGUCCCACAACACUGAAUGCAACAGCAGCAGCAUCUUAGUCACAGUAGGGUAGUUUUGGGGCUCUGUGGCCAGGGUUUUAUUCACAUGCAGGUUUGGAAAAUGUA; value = 1 ratio
Sequence = GCACUUCUCAAAUACUGGCCAAAGACUCACAGUCCAAAAGAAGUAAUGUUCUUAAAUGAAUUAGAAGAGAUUUUAGAUGUAAUUGAACCAUCAGAGUUUGUGAAGAUCAUGGAACCCCUU; value = 0.781 ratio
Sequence = AAAGAACUUGCUGAUGAUGAAGAUGAGGAAGACAAUGAUGAUGUUGAACCCAUUUCUGAAUUUCGAUUUGUGCCCAGUGAUAAGUCAGCAUUGGAGGCGAUGUUCACUGCAAUGUGCGAG; value = 0.243 ratio
Sequence = AAAUCGUGUGUGUCCAAUAUUGAAAGUGCUUUAUCUACACUCCAAUAUGUAAGCAGUAUAGUAGUUUCUUUAGAGAAUAGGUCUGCCAUUGUAAAGUACAAUGCAAGCUUAGUCACUCCA; value = 3.89 ratio
Sequence = UCCCAAAUCCAGCAGCUAGAAGGAGCCAAUUGUUUGUCACUCCACACACAGGGAAGGCGAUAACAUUGUACAUUGGUUUACAUUUUUCUCCUUGAAUGAUUUUUCUAGAGGUCAUAGUGC; value = 0.379 ratio

Series 3
Target: Histone acetyltransferase KAT6A, both winged helices, GST fusion (KAT6A, Homo sapiens, UniProt Q92794, residues 1-181)
Technique: protein binding microarray
Molecule type: double-stranded DNA, one strand shown
Sample: in vitro
Tested at: not given
Setting: 8-mer, flanks averaged, mean of 2 arrays, mostly near background
Relative to: not given
Direction: higher = stronger binding
Quantity: E-score
Construct (chain): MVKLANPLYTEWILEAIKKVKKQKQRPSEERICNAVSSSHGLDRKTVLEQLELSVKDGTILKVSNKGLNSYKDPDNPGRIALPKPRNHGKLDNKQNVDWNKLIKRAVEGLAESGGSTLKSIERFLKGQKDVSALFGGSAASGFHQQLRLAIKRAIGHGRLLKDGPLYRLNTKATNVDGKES
Sequence = GAGCCAAA; value = -0.107
Sequence = AATTTATG; value = -0.0227
Sequence = GCATACAA; value = 0.00362
Sequence = GTTCCCTA; value = -0.0846
Sequence = CGCCCCAC; value = -0.115
Sequence = CGACGACC; value = -0.00974
Sequence = GAGTACGA; value = -0.0309
Sequence = GTCAACAA; value = -0.0081
Sequence = CCCAAGCG; value = 0.0404
Sequence = AGCGAGAT; value = 0.117
Sequence = ATGCCCGA; value = -0.0883
Sequence = CATTGCAC; value = -0.162
Sequence = CTACCGTA; value = 0.114
Sequence = GGTATGGA; value = 0.0707
Sequence = CCAGAGAC; value = -0.111
Sequence = AACGATCG; value = 0.0732
Sequence = CACGCTAC; value = 0.14
Sequence = CGAACAGA; value = 0.00592
Sequence = CACAAAAC; value = -0.0856
Sequence = AGCTGTCG; value = 0.0633
Sequence = CGATTAAA; value = 0.0391
Sequence = ACCGGTGC; value = 0.139
Sequence = GGCGCTCA; value = 0.235
Sequence = CGCAAGAG; value = 0.164
Sequence = AGCCTCTG; value = -0.247

Series 4
Target: RNA binding protein fox-1 homolog 2, RRM domain, GST-SBP tag (RBFOX2, Homo sapiens, UniProt O43251-10, residues 100-194)
Technique: RNA Bind-n-Seq
Molecule type: RNA
Sample: in vitro
Tested at: 365 nM
Setting: natural RNA segment, single round, ends assumed
Relative to: no-protein control
Direction: higher = stronger binding
Quantity: RBNS enrichment (R)
Constant ends, left off below: GGGAGUUCUACAGUCCGACGAUC … UGGAAUUCUCGGGUGCCAA
Construct (chain): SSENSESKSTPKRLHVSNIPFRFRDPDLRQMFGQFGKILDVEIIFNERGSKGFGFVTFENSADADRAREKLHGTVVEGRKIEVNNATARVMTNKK
Sequence = AUACAAUAUGCUGGACAUGUGACUCAUGGCUAGAGAAUGUGUCUAGCAUGAUCGGGGACUAAGUUCUCACCCCAGCACUAAAUAAAUAAAACCAAGUCAACAGCCAUCAA; value = 0.494
Sequence = CCUUCGACCACAGCAAGCCAUCAUCCUCCAUUGCUCCCGGGGACUCAAGAGGAAUCUGUUUCUCUGCUGUCAACUUCCCAUCUGGCUCAGCAUAGGGUCACUUUGCCAUU; value = 0.729
Sequence = ACCCUCCCAGCGAGUUGCGCUGGGAGACGCUGGCGCCAGGGCCUGCCGGCGCGGGGAGGAAAGCAAAAUCCAACUAAUGGUAUAUAUUGUAGGGUACAGAAUAGAGCGUG; value = 0.449
Sequence = UGAAUCCAGGAGGUGGAGCUUGCAGUGAGCCGAGACCGUGCCACUGCACUCCAGCCUGGGCAACACAGCGAGACUCCGUCUCGAGGAAAAAAAAAGAAAAGAUACGUGCC; value = 0.261
Sequence = UUGGAUUCUGAGAAACUUGCAGCUCUUCACCAUUUACUCCUGAUGUUUCUUGUAUGGGGCCGUGGCCCUUUUGGUUGUUUUUGGUCAUUUUCUUAAAAACACAACACAAC; value = 0.407
Sequence = CUAUCCGACUUGCCUAUCCUCAAAGAUAAGAAGUUGGUGUUCAGCUUAGUUGAUUCAGUAGUUGUUACCAAGAAACAUAUGUUAUAGGAAAACAACUUGGUAUUUAAGUA; value = 0.279
Sequence = UUGAUCUUGGAGUGUGCAGUGGCCCUUCUACCCUGCACCUGACCUCAUGAUCCCCUCCACCUGCACUGGUGUGCAUUACUGAAGCAAGGGUCCUGUGGACAUCUUGCAUU; value = 0.219
Sequence = CCAAAAAUGAAUAUAGUUUCCUUUUUCAAAUCUGAAGGCAUGUGGGAAGCAGUGAGCAAAACCUGUGGUUAUUAACGGAAAAGUCUUUUAUUACAAAGUCAAUUAAAACU; value = 10.3
Sequence = AUGAGAACUUACCAGCAGAAAUCCUUGUUCCUAAGCUACAGAAUGACCAAAAGCUGUCAAGUCCUUAAUGUUUAGAAACUCCUUAAAAUGUAUAGUAUUUUAGAACAACA; value = 0.576
Sequence = GAGACUUUGAGAAACAUGGUGAUAGGCAGGGGCCUUUCCUACCAUGUUUCAAUACCUACAAACCUAUUGAAAGAGAACAGUAGGUAAAACAUUUCCUAAAGUUGAAGCAA; value = 0.293
Sequence = UUCCUCUUAGGCUACAAACCUGUACAGCAUGUUACUGUACUGAACACAAUGGUAAGUAUUUGUGUAUCUAAACAUAGCUAAACAUAGAAAAGGUAUGGUAAAAAUACAAU; value = 3.05
Sequence = UCUACCUGUUCCUAAUUUGGUGUGGGGUGCGGGGUCCCUGGCCCCUUUUCCACACUCCUCCUCCGACAGCAGCUCCCUGGGCAGUGGCCUGGUCUCACCGUGUGCAGCCU; value = 0.316
